# Results of several laboratories.
# Each line is one published result; not all experiments were run side by side. ± gives the spread as reported.
# Trypanothione synthetase: Trypanothione synthetase (Trypanosoma brucei brucei, UniProt Q586P2)
# AVPR1B: Vasopressin V1b receptor (AVPR1B, Homo sapiens, UniProt P47901)
# UniProt P47901, sequence (whole entry, looked up): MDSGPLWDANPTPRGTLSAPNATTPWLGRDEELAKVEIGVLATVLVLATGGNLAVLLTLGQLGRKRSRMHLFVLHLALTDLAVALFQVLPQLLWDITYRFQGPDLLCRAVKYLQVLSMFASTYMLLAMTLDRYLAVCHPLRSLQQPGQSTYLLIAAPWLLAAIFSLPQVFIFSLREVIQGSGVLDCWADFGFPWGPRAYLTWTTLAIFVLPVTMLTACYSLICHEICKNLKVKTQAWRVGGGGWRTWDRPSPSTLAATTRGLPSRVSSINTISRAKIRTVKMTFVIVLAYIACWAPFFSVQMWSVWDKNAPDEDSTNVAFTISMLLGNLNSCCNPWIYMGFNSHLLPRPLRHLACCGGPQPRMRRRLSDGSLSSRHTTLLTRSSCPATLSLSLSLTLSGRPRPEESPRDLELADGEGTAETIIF
# plsY: Glycerol-3-phosphate acyltransferase (plsY, Streptococcus pneumoniae, UniProt P0A4Q0)
# UniProt P0A4Q0, sequence (whole entry, looked up): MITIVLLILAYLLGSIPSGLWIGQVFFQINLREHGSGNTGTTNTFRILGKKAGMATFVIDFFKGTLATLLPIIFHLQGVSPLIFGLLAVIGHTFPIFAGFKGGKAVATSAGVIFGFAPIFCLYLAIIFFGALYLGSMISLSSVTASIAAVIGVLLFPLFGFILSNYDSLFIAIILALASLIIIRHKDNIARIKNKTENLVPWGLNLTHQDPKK
# UniProt P28335, sequence (whole entry, looked up): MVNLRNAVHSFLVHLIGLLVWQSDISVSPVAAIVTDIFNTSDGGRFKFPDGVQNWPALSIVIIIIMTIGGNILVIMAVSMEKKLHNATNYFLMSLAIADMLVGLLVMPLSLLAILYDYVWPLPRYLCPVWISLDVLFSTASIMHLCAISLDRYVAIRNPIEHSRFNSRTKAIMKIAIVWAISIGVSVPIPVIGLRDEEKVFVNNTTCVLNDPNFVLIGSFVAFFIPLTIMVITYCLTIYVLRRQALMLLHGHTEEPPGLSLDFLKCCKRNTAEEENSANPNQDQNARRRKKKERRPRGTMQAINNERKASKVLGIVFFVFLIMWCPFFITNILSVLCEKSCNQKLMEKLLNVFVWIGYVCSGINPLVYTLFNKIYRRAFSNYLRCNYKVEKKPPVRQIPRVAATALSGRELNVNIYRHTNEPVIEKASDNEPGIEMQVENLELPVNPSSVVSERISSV
# UniProt P23439, sequence (whole entry, looked up): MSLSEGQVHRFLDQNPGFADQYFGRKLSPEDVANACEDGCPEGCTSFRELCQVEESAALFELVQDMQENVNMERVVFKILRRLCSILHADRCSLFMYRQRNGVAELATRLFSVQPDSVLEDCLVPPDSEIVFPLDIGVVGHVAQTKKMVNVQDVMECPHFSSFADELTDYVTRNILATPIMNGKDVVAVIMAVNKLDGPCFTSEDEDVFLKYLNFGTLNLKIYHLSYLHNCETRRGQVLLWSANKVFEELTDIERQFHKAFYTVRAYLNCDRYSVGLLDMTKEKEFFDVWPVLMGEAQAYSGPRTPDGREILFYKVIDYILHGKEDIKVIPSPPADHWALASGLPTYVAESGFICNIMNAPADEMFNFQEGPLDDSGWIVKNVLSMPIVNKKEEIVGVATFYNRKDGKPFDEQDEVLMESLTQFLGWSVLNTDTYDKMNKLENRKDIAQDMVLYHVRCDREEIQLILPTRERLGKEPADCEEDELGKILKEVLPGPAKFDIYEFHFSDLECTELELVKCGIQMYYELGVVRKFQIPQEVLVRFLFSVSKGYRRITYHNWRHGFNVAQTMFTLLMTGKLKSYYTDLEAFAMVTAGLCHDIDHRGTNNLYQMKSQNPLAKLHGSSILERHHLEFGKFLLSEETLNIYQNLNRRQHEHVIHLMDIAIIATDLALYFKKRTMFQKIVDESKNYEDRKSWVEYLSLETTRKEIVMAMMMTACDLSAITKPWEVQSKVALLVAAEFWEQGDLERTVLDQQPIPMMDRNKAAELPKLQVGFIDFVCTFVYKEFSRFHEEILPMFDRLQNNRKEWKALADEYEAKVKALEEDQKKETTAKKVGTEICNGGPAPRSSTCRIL
# UniProt O95180, sequence (whole entry, looked up): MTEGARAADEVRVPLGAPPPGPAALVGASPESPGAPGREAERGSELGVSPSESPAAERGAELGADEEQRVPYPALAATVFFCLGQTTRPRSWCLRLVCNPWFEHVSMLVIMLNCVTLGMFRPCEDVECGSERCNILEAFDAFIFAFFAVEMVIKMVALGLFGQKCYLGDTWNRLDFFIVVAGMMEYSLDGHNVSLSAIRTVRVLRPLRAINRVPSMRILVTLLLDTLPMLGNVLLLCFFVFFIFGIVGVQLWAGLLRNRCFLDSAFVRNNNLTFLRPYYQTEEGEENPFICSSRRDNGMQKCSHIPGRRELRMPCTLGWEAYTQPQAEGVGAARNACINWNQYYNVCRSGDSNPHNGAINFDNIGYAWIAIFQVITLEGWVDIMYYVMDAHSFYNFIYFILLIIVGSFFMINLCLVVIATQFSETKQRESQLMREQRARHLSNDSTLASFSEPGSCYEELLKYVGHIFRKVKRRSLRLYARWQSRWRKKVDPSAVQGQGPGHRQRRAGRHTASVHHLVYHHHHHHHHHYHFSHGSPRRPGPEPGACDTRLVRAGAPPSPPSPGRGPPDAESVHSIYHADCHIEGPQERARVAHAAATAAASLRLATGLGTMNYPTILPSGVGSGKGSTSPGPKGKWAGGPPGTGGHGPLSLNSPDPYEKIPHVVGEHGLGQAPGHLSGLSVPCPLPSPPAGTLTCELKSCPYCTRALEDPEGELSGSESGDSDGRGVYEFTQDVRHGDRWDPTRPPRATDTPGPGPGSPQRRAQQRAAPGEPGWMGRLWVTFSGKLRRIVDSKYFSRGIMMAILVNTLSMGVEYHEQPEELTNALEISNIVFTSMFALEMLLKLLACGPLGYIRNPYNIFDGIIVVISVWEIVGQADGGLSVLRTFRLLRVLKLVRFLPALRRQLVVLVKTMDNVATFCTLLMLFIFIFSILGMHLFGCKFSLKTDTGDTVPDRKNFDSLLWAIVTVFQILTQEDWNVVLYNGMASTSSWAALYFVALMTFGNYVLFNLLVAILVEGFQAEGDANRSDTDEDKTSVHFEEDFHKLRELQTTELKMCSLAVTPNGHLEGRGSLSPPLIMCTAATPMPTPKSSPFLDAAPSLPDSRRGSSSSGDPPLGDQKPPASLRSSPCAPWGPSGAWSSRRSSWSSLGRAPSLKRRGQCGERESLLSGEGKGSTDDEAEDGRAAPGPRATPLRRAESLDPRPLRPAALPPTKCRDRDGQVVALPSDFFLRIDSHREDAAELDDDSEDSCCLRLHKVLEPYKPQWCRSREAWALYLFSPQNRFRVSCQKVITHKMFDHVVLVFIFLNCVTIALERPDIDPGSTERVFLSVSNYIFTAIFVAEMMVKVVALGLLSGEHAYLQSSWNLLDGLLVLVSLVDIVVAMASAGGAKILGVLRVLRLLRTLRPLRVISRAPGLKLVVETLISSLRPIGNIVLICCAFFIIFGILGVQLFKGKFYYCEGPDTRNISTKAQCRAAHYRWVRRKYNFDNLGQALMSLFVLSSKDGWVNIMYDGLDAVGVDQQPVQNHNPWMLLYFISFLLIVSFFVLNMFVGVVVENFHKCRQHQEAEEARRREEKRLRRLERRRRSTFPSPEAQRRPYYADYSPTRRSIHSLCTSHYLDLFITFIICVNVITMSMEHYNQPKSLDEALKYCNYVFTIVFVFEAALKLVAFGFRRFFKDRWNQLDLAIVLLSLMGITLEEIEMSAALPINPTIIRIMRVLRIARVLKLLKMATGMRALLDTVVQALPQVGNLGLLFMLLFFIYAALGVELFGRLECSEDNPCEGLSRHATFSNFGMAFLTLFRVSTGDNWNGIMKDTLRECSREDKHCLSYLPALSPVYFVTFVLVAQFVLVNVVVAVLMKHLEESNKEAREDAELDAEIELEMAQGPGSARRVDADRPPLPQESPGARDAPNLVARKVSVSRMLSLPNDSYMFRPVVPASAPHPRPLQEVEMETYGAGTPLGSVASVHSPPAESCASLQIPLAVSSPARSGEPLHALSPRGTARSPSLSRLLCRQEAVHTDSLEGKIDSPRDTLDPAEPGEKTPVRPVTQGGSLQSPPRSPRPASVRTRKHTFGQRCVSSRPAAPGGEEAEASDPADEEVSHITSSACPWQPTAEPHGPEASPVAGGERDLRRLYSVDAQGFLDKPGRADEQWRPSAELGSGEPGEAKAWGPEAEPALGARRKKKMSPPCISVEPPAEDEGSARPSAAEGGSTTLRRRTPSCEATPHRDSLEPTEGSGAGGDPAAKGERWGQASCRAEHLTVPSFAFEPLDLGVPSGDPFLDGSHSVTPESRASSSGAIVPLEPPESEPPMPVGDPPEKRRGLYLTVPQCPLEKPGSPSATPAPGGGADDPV
# UniProt A5K9W3, sequence (whole entry, looked up): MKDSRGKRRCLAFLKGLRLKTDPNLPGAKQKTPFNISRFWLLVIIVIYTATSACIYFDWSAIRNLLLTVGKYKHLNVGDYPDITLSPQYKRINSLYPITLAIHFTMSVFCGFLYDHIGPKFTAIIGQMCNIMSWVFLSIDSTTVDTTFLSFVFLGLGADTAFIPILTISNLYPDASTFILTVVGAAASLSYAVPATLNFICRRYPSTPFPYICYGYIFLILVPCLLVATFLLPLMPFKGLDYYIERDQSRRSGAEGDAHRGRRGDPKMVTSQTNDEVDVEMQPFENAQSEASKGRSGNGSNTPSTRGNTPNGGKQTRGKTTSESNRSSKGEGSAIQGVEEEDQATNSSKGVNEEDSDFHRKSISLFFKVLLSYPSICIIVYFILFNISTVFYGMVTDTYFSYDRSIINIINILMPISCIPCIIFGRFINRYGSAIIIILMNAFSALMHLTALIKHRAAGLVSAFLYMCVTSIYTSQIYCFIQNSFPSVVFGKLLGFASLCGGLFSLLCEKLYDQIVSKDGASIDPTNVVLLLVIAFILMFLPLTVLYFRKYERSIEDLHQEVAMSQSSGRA
Compound,target,assay,test system,conditions,inhibition
COc1cc2c(cc1OC)CN(C(=O)COC(=O)c1cn(C)c3ccccc13)CC2,Trypanothione synthetase,"enzyme activity, BIOMOL Green phosphate release",,25 µM,33.7 ± 6.1%
c1ccc(C(NCCNC(c2ccccc2)c2ccccc2)c2ccccc2)cc1,"PDE6A/PDE6B (Bos taurus, UniProt P11541+P23439)",enzyme activity,,"10 µM, Eurofins selectivity panel",3%
Cc1ncc(C)n2nc(/C=C/c3nc(N4CCCC4)cc(N4CCOCC4)n3)nc12,L-type calcium channel diltiazem site,radioligand binding,,10 µM,-56%
CC(C)N1CCC[C@H]1CNC(=O)c1cn(C2CCCC2)c(=O)c2c1c1ccccc1n2C,"GABAA receptor benzodiazepine site, rat brain",radioligand binding,,10 µM,12%
O=c1ccc2ccccc2o1,"CHRM2 (Homo sapiens, UniProt P08172)",antagonist radioligand binding,,"10 µM, SafetyScreen44",-6.65%
CN(C(=O)n1cnc(-c2ccc[n+]([O-])c2)c1)C1CCCCC1,AVPR1B,radioligand binding,,"50 µM, added: [3H]arginine vasopressin",10%
CCN1CCN(Cc2ccc(CNC(=O)Cc3c[nH]c4ccccc34)cc2)CC1,Trypanothione synthetase,"enzyme activity, BIOMOL Green phosphate release",,25 µM,29 ± 5.1%
CCCCCCCC(=O)NP(=O)(O)O,plsY,inhibitor,,200 µM,0%
Cn1cccc1-c1cccnc1,"HTR2C (Homo sapiens, UniProt P28335)",binding,,50 µM,-12.5%
NCCCC[C@H](N)C(=O)O,"Cationic amino acid transporter 8 (NPT1, Plasmodium vivax, UniProt A5K9W3)",,,100 µM,98.7%
CN1C(=O)N(CC(=O)NCc2ccc(Oc3ccc(F)cc3)cc2)C(=O)C12CCCCC2,Trypanothione synthetase,"enzyme activity, BIOMOL Green phosphate release",,25 µM,15.5 ± 9.4%
O=[N+]([O-])c1ccc(O)c([N+](=O)[O-])c1,"Palmitoyl-protein thioesterase 1 (Homo sapiens, UniProt P50897)",Spectrum Collection screen,,"concentration not given, added: substrate 20 µM",87.9%
COc1ccc(N2C(=O)N(c3c(C)cccc3Cl)Cc3cnc(Nc4ccc(C5CCN(C)CC5)cc4OC)nc32)nc1,"PTK2B (Homo sapiens, UniProt Q14289)","kinase activity, inhibitor",,"0.5 µM, PYK2",27%
FC(F)(F)c1cccc(Nc2nc(NCCOc3ccccc3)nc3[nH]cnc23)c1,"Cyclin-dependent kinase 2, with cyclin A (CDK2, Homo sapiens, UniProt P24941)",Z'-LYTE or Adapta,,5 µM,6%
CCCC(=O)CP(=O)(O)O,plsY,inhibitor,,200 µM,18%
CCc1cc(=O)[nH]c(-n2nc(C)cc2NC(=O)c2cc(C)ccc2F)n1,"LCK (Homo sapiens, UniProt P06239)",radiometric kinase,,10 µM,no inhibition
COCc1c(-c2cc3cc(C)cc(OC)c3s2)c2c(N)ncnn2c1CN1CCNC(=O)C1,NMDA receptor glycine site,radioligand binding,,10 µM,-4%
O=C(Nc1cnccc1Cl)N1CCN(Cc2ccc3c(c2)OC(F)(F)O3)CC1,AVPR1B,binding,,"10 µM, added: [3H][Arg8]vasopressin",13%
O=C(CCCCc1ccccc1)CP(=O)(O)O,plsY,inhibitor,,200 µM,6%
O=C(Nc1cccnn1)N1CCC(=Cc2cccc(Oc3ccc(C(F)(F)F)cn3)c2)CC1,AVPR1B,binding,,"50 µM, added: [3H][Arg8]vasopressin",18%
CCCCCCCCCCCCCCCC(=O)NP(=O)(O)O,plsY,inhibitor,,200 µM,75%
O=C(COC(=O)c1cccnc1N1CCCC1)c1cc(F)ccc1F,Trypanothione synthetase,"enzyme activity, BIOMOL Green phosphate release",,25 µM,34.1 ± 6%
COc1cc2c(NC3CCN(C)CC3)cc(-c3ccc(C)o3)nc2cc1OCCCN1CCCC1,"DNMT1 (Homo sapiens, UniProt P26358)",enzyme activity,,45.72 nM,-8.89%
Cc1[nH]c2ccc(C(=O)N3CCN(S(=O)(=O)c4ccc(Cl)s4)CC3)cc2c1C,Trypanothione synthetase,"enzyme activity, BIOMOL Green phosphate release",,25 µM,7.2 ± 3%
CCCCCn1c2ccccc2c2cc(C(=O)NCC3CCN(CC(=O)NC(C)(C)C)CC3)ccc21,"CACNA1H (Homo sapiens, UniProt O95180)","calcium current, whole-cell patch clamp",tsA201 (hCav3.2 transfected),3 µM,69.3 ± 4%
COc1cc(Nc2ncc(F)c(Nc3ccc4c(n3)NC(=O)C(C)(C)O4)n2)cc(OC)c1OC,"MYLK4 (Homo sapiens, UniProt Q86YV6)",KINOMEscan,,10 µM,84%
O=C(N1CCC2(CC1)C[C@@H](CN1CCCCS1(=O)=O)CCO2)C1(c2ccccc2)CCCC1,"DHX58 (Homo sapiens, UniProt Q96C10)","ATPase activity, inhibitor",,50 µM,10%
O=C(O)c1nccnc1NC(=O)c1cccc2ccccc12,"panD (Mycobacteroides abscessus, UniProt B1MGV7, Y127A)",,,200 µM,81.8%
CN1CCN(c2cc(-c3ccncc3)c(-c3ccc4ccccc4c3)nn2)CC1,"CCR10 (Homo sapiens, UniProt P46092)","antagonist, FLIPR",,10 µM,2.6%
O=C(CCCCCCCCCCOc1ccccc1)NP(=O)(O)O,plsY,inhibitor,,200 µM,47%
CN(CCN1CCC(OC(=O)Nc2ccccc2-c2ccccc2)CC1)C(=O)c1ccc(CN2CCC(C(N)=O)CC2)cc1,adenylyl cyclase,enzyme activity,,1 µM,3%

# Repeated from above:
Compound,target,assay,test system,conditions,inhibition
COc1cc2c(NC3CCN(C)CC3)cc(-c3ccc(C)o3)nc2cc1OCCCN1CCCC1,"DNMT1 (Homo sapiens, UniProt P26358)",enzyme activity,,45.72 nM,-8.89%
CCCC(=O)CP(=O)(O)O,plsY,inhibitor,,200 µM,18%
O=C(COC(=O)c1cccnc1N1CCCC1)c1cc(F)ccc1F,Trypanothione synthetase,"enzyme activity, BIOMOL Green phosphate release",,25 µM,34.1 ± 6%
COc1cc2c(cc1OC)CN(C(=O)COC(=O)c1cn(C)c3ccccc13)CC2,Trypanothione synthetase,"enzyme activity, BIOMOL Green phosphate release",,25 µM,33.7 ± 6.1%
